# Experimental data from different studies.
# Lines come from different studies, so protocols differ. “And” joins repeats or separate records; there may be more than shown. ± marks the error that the study gave.
# SLC6A9: Sodium- and chloride-dependent glycine transporter 1 (SLC6A9, Homo sapiens, UniProt P48067)
# Chain of UniProt P48067 (whole entry, looked up): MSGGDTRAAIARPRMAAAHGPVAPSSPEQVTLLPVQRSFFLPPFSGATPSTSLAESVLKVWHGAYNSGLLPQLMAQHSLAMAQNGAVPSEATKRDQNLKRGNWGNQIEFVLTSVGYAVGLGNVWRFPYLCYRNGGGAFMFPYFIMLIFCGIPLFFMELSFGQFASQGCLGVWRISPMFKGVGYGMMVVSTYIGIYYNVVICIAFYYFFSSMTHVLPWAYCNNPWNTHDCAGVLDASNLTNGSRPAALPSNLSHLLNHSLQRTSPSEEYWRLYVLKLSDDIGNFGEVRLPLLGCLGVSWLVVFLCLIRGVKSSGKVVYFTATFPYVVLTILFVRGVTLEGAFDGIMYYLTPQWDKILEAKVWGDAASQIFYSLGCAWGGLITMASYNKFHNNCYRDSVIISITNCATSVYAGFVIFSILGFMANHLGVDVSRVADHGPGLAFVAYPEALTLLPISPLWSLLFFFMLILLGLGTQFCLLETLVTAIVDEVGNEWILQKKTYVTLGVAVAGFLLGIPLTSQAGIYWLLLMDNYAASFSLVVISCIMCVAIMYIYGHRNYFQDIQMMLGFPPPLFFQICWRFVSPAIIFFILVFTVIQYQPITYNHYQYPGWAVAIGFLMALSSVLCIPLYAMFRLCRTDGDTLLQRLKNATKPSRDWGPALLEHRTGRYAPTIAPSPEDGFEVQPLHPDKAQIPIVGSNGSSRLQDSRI
# USP14: Ubiquitin carboxyl-terminal hydrolase 14 (USP14, Homo sapiens, UniProt P54578)
# Chain of UniProt P54578 (whole entry, looked up): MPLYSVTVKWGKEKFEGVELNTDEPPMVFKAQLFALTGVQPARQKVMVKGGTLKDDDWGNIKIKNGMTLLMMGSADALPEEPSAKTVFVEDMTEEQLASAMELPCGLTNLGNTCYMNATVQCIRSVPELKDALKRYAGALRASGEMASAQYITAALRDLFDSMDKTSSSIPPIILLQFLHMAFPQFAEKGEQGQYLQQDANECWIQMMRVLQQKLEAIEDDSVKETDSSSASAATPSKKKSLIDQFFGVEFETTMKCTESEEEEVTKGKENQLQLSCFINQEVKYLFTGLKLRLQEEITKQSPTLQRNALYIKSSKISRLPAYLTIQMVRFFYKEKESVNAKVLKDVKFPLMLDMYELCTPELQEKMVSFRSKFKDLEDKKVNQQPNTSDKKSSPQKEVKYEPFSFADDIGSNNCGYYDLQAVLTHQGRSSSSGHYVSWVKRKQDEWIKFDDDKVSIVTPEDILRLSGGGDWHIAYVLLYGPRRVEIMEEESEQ
# Gria2/Glutamate receptor 3: Gria2/Glutamate receptor 3 (Rattus norvegicus, UniProt P19491+P19492)
# Chain of UniProt P45983 (whole entry, unmodified, looked up): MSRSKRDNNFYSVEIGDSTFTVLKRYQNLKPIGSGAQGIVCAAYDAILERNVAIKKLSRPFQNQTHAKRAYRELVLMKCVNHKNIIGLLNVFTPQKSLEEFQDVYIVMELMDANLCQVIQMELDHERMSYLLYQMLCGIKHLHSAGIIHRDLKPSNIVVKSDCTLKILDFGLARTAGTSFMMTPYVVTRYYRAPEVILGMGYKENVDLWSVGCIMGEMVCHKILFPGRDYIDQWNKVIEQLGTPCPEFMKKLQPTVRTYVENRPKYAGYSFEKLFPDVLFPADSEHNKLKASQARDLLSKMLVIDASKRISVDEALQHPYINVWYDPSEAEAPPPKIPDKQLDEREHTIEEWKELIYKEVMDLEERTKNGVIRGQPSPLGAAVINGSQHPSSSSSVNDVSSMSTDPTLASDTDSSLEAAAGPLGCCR
# Chain of UniProt P19492 (whole entry, looked up): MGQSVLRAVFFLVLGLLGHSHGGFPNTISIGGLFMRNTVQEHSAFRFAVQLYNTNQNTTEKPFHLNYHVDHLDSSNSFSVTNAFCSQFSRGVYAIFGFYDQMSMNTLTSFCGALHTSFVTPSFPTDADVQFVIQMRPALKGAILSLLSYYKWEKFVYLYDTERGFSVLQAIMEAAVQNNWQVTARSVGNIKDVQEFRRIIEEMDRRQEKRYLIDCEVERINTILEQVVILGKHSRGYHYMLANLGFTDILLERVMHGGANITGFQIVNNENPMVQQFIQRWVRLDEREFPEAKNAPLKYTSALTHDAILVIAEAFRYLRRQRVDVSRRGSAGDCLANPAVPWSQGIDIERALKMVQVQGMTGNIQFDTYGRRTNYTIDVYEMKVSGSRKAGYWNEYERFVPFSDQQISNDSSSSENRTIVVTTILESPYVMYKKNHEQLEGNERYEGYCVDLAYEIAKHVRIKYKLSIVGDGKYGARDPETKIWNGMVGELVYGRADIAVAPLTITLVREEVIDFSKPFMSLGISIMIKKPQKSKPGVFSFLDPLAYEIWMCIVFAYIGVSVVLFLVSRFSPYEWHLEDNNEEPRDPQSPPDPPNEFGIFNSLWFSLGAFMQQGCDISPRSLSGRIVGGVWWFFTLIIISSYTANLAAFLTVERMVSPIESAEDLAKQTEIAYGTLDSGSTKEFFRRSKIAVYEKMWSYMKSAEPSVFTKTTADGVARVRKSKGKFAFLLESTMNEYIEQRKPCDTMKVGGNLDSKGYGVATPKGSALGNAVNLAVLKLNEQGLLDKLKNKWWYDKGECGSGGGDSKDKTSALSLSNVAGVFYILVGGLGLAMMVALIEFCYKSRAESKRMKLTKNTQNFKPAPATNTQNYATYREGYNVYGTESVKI
# Chain of UniProt P19491 (whole entry, looked up): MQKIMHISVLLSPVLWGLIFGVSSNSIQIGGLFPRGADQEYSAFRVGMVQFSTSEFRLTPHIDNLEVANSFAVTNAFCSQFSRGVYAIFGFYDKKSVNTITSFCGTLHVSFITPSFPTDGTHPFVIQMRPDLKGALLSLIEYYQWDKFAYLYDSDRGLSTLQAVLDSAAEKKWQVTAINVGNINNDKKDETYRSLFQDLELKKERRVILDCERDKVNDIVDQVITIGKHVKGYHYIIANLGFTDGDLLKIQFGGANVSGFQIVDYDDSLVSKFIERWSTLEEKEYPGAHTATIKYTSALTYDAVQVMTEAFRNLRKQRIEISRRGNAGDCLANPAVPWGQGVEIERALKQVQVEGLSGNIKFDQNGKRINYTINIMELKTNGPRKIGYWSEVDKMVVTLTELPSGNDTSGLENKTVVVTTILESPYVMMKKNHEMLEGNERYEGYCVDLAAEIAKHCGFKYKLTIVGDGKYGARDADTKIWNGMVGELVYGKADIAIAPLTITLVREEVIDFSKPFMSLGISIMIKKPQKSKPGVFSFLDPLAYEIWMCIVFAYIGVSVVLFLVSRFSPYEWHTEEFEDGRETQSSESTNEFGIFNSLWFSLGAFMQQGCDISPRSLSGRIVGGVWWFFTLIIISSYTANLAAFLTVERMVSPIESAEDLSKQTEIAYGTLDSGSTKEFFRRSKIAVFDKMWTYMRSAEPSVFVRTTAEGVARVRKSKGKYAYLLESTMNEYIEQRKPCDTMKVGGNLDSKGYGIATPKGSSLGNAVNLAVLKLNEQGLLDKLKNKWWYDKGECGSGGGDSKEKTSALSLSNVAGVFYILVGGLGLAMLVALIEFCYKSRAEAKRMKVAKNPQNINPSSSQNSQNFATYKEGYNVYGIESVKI
# Chain of UniProt Q9HB29 (whole entry, looked up): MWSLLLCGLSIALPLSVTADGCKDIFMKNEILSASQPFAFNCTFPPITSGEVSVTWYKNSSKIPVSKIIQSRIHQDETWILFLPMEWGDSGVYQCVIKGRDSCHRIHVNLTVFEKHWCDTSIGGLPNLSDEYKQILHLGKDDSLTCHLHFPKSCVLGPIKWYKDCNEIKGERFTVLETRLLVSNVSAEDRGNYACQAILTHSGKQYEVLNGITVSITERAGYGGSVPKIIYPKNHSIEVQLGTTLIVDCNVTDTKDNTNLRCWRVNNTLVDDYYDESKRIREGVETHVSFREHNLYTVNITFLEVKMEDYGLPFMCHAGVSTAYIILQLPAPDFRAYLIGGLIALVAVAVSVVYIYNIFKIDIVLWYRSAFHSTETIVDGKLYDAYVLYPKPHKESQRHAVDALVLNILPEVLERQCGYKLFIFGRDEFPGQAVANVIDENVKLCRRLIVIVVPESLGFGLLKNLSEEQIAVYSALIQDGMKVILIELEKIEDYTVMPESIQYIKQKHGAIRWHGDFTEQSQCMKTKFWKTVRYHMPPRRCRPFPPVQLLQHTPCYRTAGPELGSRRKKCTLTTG
# Chain of UniProt P40337 (whole entry, looked up): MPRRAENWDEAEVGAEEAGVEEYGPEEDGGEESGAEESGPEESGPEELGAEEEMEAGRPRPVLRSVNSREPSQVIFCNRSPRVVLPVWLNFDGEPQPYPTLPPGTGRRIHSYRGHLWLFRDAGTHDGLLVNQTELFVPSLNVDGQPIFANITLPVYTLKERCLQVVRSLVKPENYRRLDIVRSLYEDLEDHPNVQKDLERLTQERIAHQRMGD
# Chain of UniProt Q9H8M2 (whole entry, looked up): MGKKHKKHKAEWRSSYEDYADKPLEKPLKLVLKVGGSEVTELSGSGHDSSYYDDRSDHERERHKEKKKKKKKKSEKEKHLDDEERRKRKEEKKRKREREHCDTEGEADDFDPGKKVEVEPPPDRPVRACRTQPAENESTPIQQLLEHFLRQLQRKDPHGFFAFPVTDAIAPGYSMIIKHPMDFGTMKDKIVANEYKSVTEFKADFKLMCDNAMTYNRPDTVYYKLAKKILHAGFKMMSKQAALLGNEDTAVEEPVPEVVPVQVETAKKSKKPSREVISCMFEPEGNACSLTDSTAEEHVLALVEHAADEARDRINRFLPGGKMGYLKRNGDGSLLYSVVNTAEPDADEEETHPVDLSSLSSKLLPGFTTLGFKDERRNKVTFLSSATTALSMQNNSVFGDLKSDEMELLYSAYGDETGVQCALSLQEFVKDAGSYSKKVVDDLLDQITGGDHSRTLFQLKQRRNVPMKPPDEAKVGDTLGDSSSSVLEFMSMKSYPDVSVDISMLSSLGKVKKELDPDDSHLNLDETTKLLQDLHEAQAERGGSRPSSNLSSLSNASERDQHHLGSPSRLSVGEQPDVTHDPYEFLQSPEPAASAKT
# Chain of UniProt Q9WTL7 (whole entry, looked up): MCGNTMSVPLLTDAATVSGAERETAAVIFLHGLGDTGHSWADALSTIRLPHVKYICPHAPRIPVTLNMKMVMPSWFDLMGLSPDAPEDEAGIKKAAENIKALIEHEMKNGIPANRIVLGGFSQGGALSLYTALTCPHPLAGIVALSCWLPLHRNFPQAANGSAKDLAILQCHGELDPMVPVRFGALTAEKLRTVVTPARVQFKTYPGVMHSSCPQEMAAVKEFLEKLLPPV
Structure (SMILES),target,assay,test system,conditions,scale,measurement,value
CC(C)C[C@@H]1NC(=O)CN(C)C(=O)[C@H](Cc2c[nH]c3ccccc23)NC(=O)[C@H](CCC(=O)O)NC(=O)[C@H](Cc2ccccc2)N(C)C(=O)[C@H](Cc2ccccc2)NC(=O)CSC[C@@H](C(N)=O)NC(=O)[C@H](CCCCN)NC(=O)[C@H](C(C)C)NC(=O)[C@H](Cc2ccc(O)cc2)NC(=O)[C@H](Cc2ccc(O)cc2)NC(=O)[C@H](C(C)C)NC(=O)[C@H](Cc2ccccc2)N(C)C(=O)[C@H](CCCNC(=N)N)NC1=O,"AT-rich interactive domain-containing protein 1B (ARID1B, Homo sapiens, UniProt Q8NFD5, V2196N)",differential scanning fluorimetry,,"5 µM, protein at 2 µM",relative to: vehicle control,ΔTm,2 ± 1 °C
Cc1ccc(C(=O)Nc2ccc(CN3CCN(C)CC3)c(C(F)(F)F)c2)cc1C#Cc1cnc2cccnn12,"SIK3 (Homo sapiens, UniProt Q9Y2K2)","target engagement, NanoBRET",human cells,,,Hill slope,0.703
COc1ccc(C(OCCN2CCCC(C(=O)O)C2)(c2ccc(CN3CCCC3=O)cc2)c2ccc(OC)cc2)cc1 (stereo not drawn),SLC6A9,cell-free assay,,1 µM,,remaining signal,57%
O=C(N1CCCC1)n1cc(-c2ccc(-c3ccccc3)cc2)nn1,"Acyl-protein thioesterase 2 (Mus musculus, UniProt Q9WTL7)","probe labelling, inhibitor, competitive ABPP-SILAC, measured: Lypla2",mouse T cells,"concentration not given, 4 h, protein level","relative to: treated over DMSO cells, lower = stronger inhibition",SILAC activity ratio,1.35
N#CN1CC[C@H](C(=O)Nc2nc3c(s2)CN(C(=O)Cn2cc(CNC(=O)CCCC[C@@H]4SC[C@@H]5NC(=O)N[C@@H]54)nn2)CC3)C1,"(E3-independent) E2 ubiquitin-conjugating enzyme (UBE2O, Homo sapiens, UniProt Q9C0C9)","probe binding, affinity probe, neutravidin pull-down LC-MS/MS","HEK293T, cell lysate","5 µM, 1 h, mean of three replicates, unit not given",higher = more pulled down,iBAQ abundance,950000
COC(=O)CN1CCCc2cc3cc(C(=O)NC(Cc4cccc(Cl)c4)C(=O)NCC=CS(=O)(=O)c4ccccc4)c(=O)oc3cc21 (stereo not drawn),"Cathepsin S (CTSS, Homo sapiens, UniProt P25774)",inhibitor,,added: Z-Phe-Arg-AMC,,kinact/Ki,671 M⁻¹ s⁻¹
O=C1C2=[N+]([O-])[C@H]3CCCC[C@H]3[N+]([O-])=C2c2ccccc21,USP14,"enzyme activity, inhibitor",,17 µM,,inhibition,40%
CCCCOc1ccc(C(=O)OCC[N+]2(C)CC=CCC2)cc1 (stereo not drawn),"CHRM1 (Homo sapiens, UniProt P11229)",,membranes,"1 µM, 15 h, no carbachol",relative to: control,basal binding,1 ± 0.03 fold
COC(=O)[C@@]1(C(C)C)C=C(C(=O)Nc2cccc(C(=O)Nc3ccc(Nc4nccc(-c5cccnc5)n4)c(C)c3)c2)C(=O)CC1,"MAPK8 (Homo sapiens, UniProt P45983, C116S)","binding, SPR",,"100, 300, 1000 nM, 1:1 binding model",,koff,0.108 s⁻¹
O=C(O)Cc1cc2c(cc1C(=O)c1cccc(Br)c1)OCO2,Gria2/Glutamate receptor 3,whole-cell patch clamp,HEK-293T,"concentration not given, added: glutamate",,deactivation time constant,6.6 ± 0.3 ms
C#CCOC(=O)[C@]1(C)C=C(C(=O)OC(C)(C)C)C(=O)CC1,"MAPK8 (Homo sapiens, UniProt P45983)","enzyme activity, D-SENSOR",,"4.938 µM, single replicate",,normalized kinase activity,0.88 and 1.01
CC(C)[C@@H]1NC(=O)[C@H](Cc2ccccc2)NC(=O)CSC[C@@H](C(N)=O)NC(=O)[C@H](CCC(=O)O)NC(=O)[C@H](CO)NC(=O)[C@H](Cc2c[nH]c3cccc(Cl)c23)NC(=O)[C@H](C2CCCCC2)NC(=O)[C@H](C(C)C)NC(=O)[C@H](Cc2ccc(O)cc2)NC(=O)[C@H](CC(=O)O)NC(=O)[C@H](Cc2c[nH]c3ccccc23)NC(=O)[C@H](Cc2ccc(N)nc2)NC(=O)[C@H](Cc2c[nH]c3ccc(Cl)cc23)NC(=O)[C@H](CCC(=O)O)NC1=O,"Interleukin-1 receptor-like 2 (IL1RL2, Homo sapiens, UniProt Q9HB29)","reporter gene (SEAP), inhibitor, HEK-Blue IL-36R reporter",HEK-Blue IL-36R cells,"0.015 µM, 6 h, added: IL-36γ 100 ng/mL",,remaining activity,100%
CCCCCCCO[C@H]1O[C@H](CO)[C@@H](O)[C@H](O)[C@@H]1O,"Type 1 fimbrin D-mannose specific adhesin, lectin domain (fimH, Escherichia coli K-12, UniProt P08191)","binding, isothermal titration calorimetry",,"25 °C, global fit of two titrations",,-TΔS,7.3 kJ/mol
Cc1ncsc1-c1ccc(CNC(=O)[C@@H]2C[C@@H](O)CN2C(=O)[C@@H](NC(=O)C2(F)CC2)C(C)(C)C)c(OCCC2CN(c3nc(NCC(C)(C)C4(O)CCOC4)nc(N4CCC[C@H]4Cn4ccnn4)n3)C2)c1 (stereo partly drawn),"VHL/BRD9 (Homo sapiens, UniProt P40337+Q9H8M2)","BRD9 degradation, degrader, HiBiT",HEK293T BRD9-HiBiT,15 h,,Dmax,60%
O=C1c2ccccc2C(=O)c2c1oc1c3c(ccc21)OCN(CCCn1ccnc1)C3,USP14,"enzyme activity, inhibitor",,17 µM,,inhibition,60%
CC[C@H](C)[C@H](NC(=O)[C@@H](NC(=O)[C@@H](NC(=O)[C@@H](NC(=O)[C@H](CCCNC(=N)N)NC(=O)[C@H](CCC(=O)O)NC(=O)[C@H](CCC(=O)O)NC(=O)[C@H](C)NC(=O)[C@H](CCC(=O)O)NC(=O)CNC(=O)[C@H](C)NC(=O)CN)C(C)C)C(C)C)C(C)C)C(=O)N[C@@H](CC(=O)O)C(=O)N[C@@H](CC(=O)O)C(=O)N[C@@H](CC(=O)O)C(=O)N[C@@H](CCC(=O)O)C(=O)N[C@@H](CC(=O)O)C(=O)N[C@@H](CC(=O)O)C(=O)N[C@@H](CC(=O)O)C(=O)N[C@@H](C)C(=O)N[C@@H](CCC(=O)O)C(=O)N[C@@H](CC(N)=O)C(=O)N[C@@H](CO)C(=O)N[C@@H](CO)C(=O)N[C@@H](CO)C(=O)N[C@@H](CCCNC(=N)N)C(=O)N[C@@H](Cc1ccc(O)cc1)C(=O)O,"Small ubiquitin-related modifier 1, residues 17-97 (Homo sapiens, UniProt P63165, C52A)",isothermal titration calorimetry,,"concentration not given, pH 7.4, N-terminally truncated SUMO1",,enthalpy change (ΔH),6.51 ± 0.05 kcal/mol
Cc1ncc2[nH]c(=O)n(-c3cnc(Oc4cccc5c4C(C)(C)CO5)c(Cl)c3C)c2n1,"KCNC1 (Homo sapiens, UniProt P48547)","potassium current, manual patch clamp",,"10 µM, prepulse 30 s, test +40 mV",,availability V1/2,-67.7 ± 4.8 mV
COC(=O)[C@@]1(C)C=C(C(=O)Nc2cccc(C(=O)Nc3ccc(Nc4nccc(-c5cccnc5)n4)c(C)c3)c2)C(=O)CC1,"MAPK9 (Homo sapiens, UniProt P45984)","enzyme activity, inhibitor",,"8.363e-05 µM, unit not given",relative to: vehicle,remaining activity,0.99
CCCCCC(O)/C=C/C=O (stereo not drawn),"Ketosamine-3-kinase, C24 (FN3KRP, Homo sapiens, UniProt Q9HA64)",competitive isoTOP-ABPP,"proteome, soluble, MDA-MB-231","100 µM, 60 min, added: iodoacetamide probe","relative to: DMSO over compound-treated, higher = stronger cysteine blockade",isoTOP-ABPP competition ratio,15
COC(=O)Cc1cc2c(cc1C(=O)c1ccccc1)OCO2,Gria2/Glutamate receptor 3,"glutamate-evoked current, whole-cell patch clamp",HEK-293T,"concentration not given, weighted tau, 500 ms pulse, added: glutamate",,desensitization time constant,2.6 ± 0.2 ms
NCC(NCCC=C(c1ccccc1)c1ccccc1)C(=O)O (racemic),SLC6A9,cell-free assay,,10 µM,,remaining signal,45.3%
Cc1cc(C)cc(COc2cc3c(cc2OCc2cc(C)cc(C)c2)C2CC(O)(Cc4cn(CCOCCOCCNC(=O)CCCCC5SCC6NC(=O)NC65)nn4)CC(C)N2CC3)c1 (stereo not drawn),"Transportin-3 (Homo sapiens, UniProt Q9Y5L0)","biotinylated probe pull-down, measured: TNPO3",,10 µM probe,relative to: heavy over light,SILAC ratio,2.04
CCOC(=O)C1(C)C(Br)=C(Cl)C(=O)N1c1ccc(Cl)cc1 (stereo not drawn),"Rac GTPase-activating protein 1 (Homo sapiens, UniProt Q9H0H5)","GAP activity, malachite green phosphate",,"concentration not given, orthogonal retest",,inhibition,54.4%
CC1=NN(C(C)(C)C)C(=O)C1,USP14,"enzyme activity, inhibitor",,17 µM,,inhibition,83%

# For quick reference, copied from above:
Structure (SMILES),target,assay,test system,conditions,scale,measurement,value
CCCCOc1ccc(C(=O)OCC[N+]2(C)CC=CCC2)cc1 (stereo not drawn),"CHRM1 (Homo sapiens, UniProt P11229)",,membranes,"1 µM, 15 h, no carbachol",relative to: control,basal binding,1 ± 0.03 fold
COC(=O)[C@@]1(C(C)C)C=C(C(=O)Nc2cccc(C(=O)Nc3ccc(Nc4nccc(-c5cccnc5)n4)c(C)c3)c2)C(=O)CC1,"MAPK8 (Homo sapiens, UniProt P45983, C116S)","binding, SPR",,"100, 300, 1000 nM, 1:1 binding model",,koff,0.108 s⁻¹
